Published values gathered from unrelated publications.
Parts stem from different laboratories: compare values within a part only. Changes are numbered by the printed parent chain.

Sample 1
Target: RNA binding protein fox-1 homolog 2, RRM domain, GST-SBP tag (RBFOX2, Homo sapiens, UniProt O43251-10, residues 100-194)
Technique: RNA Bind-n-Seq
Form: RNA
Matrix: in vitro
Tested at: 365 nM
Notes: natural RNA segment, single round, ends assumed
Reference: no-protein control
Direction: higher = stronger binding
Constant ends, left off below: GGGAGUUCUACAGUCCGACGAUC … UGGAAUUCUCGGGUGCCAA
Target sequence (chain): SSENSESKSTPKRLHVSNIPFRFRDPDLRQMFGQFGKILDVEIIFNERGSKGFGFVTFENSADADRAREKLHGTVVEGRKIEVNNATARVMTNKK
Sequence	RBNS enrichment (R)
AGCGCCAGUACUAGAGCCUGCUUAUCCACAUUUGCCCUGGACAGGAGCAGGAGGAAGUCCACUUCUGUACCGGCAGACAGAGCAUGUGAACACAAAACACAUUUCUAUGG	0.288
GGACAGACACCAGACCAUGGAGGUGUCCUGCUAAGCAGAUGCUCCUCCCCUGGACCAUUGCAAGUCCAUCCUUCAAAUGACCACUCCAUAAUAUAACAUUUCAUCCAGUA	0.328
UCCUGCUUCCCACUAUCCUUUUCCUGUUAUUAUUCAAAUUUUACACAAGGACUAAUCCUGGGUGUCUCUGAGACCCAUCUCCUGCCUAGACAUCCACCUCCAGAGCAACA	0.942
UGGCUUAUUUUAAUGUGAUGAUGUAAUUGAUGGUUUUUUAUUAUUGUGGUAGGCCUUUUAACAUUUUGUUCUUACACAUACAGUUUUAUGCUCUUUUUUACUCAUUGAAA	0.563
UUUGUCCUCUUGUCUUAGAGUUGUGUGUAAAUCAAGGAAGCCAUCAUUAAAUUGUUUUAUUUCUCUCCUUUCUGGUUUUUAAGAGAUUUAGGGAACUAGGAAUUUUUCAC	0.654
AGAAAAAUGCCUAAUAUACUAAAGUAAACCAAACGUUGUCACUUUUCUCUUGUUCUUGAAACAUUGCAACCAAAAAGGUCAGCACAAAGGCCUUCACCUACGUGAAGACC	0.754
UCCUGAGUCUUCAGGUGCACACAGCCUUCUUGUGGAGCUACUUUUGCAAAUAUUACAAGGUGGGGGGACACUAAUUGUUGCUGCUAGUGCUGUCUAAUAACGUGGUCAUU	0.731
UCAGUGGACAGGGCAUCUGUUACCCUGAGACCUGUGGCAGACACGUCUUGUUUUCAUUUGAUUUUUGUUAAGAGUGCAGUAUUGCAGAGUCUAGAGGAAUUUUUGUUUCC	0.954
AUAGUUCUGAGUUCUGUCAAAUGCCGUGAAAGUAUUUGCUAUAAUAAAGAAAAUUCUUGUGACUUUACUACCAGGACUUUUCUCUUCCCCAUGUCAAAAUACAAUCAAUA	0.413
AACCUCCCAUCUAUCCCCAUUCCUGAGACAGGAGUUACAGUCCCUUUUGGCCCUCACAUCCAAUAAAAGACUGAUACCACUGGAGUGGCUGGCUUUUAAUUCCCCUGGGC	0.381
CAAAGAAUUUCUGUGGGGAUUUGUACCCCAGAAUCCUGUUCCCCCAUCCCUUCUCCCACCUCCUCCCCUCUCCCUCCCCCUGGAGACCCUGGAAGUGGUGUGUUCACAUA	0.622
ACCCUUGCAAAGUAAACAGCUUUCCCAGGUUCCAAGGCCAGUUUUCACUGCUAAGGACCGGAAGGACCCCUGCAUUGACACUCACCAGUACCGAGAAGGUCUAAGUAAAA	0.3

Sample 2
Target: ATF3, bZIP domain (human)
Technique: DHFR protein complementation
Matrix: yeast
Notes: single substitutions, most at no-binding floor
Reference: wild-type JUN-FOS pair
Direction: higher = stronger binding
Starting sequence: JUN, bZIP domain (human); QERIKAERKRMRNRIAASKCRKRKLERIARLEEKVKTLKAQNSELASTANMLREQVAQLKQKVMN; partner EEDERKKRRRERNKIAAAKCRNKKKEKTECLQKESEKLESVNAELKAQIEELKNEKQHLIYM
Change	binding fitness [natural log]
Q41M	-0.188
L45G	-1.15
A46W	-0.222
S43T	-0.0213
A49M	-0.155
K36V	-0.207
R53Q	-0.235
Q41G	-0.694
L31W	-0.305
Q58A	-0.204
S47M	-0.16
E44A	-0.104
A40L	-0.183
T37G	-0.125

Sample 3
Target: Histone acetyltransferase KAT6A, winged helix 1, GST fusion (KAT6A, Homo sapiens, UniProt Q92794, residues 1-85)
Technique: protein binding microarray
Form: double-stranded DNA, one strand shown
Matrix: in vitro
Tested at: not given
Notes: 8-mer, flanks averaged, mean of 2 arrays, mostly near background
Reference: not given
Direction: higher = stronger binding
Target sequence (chain): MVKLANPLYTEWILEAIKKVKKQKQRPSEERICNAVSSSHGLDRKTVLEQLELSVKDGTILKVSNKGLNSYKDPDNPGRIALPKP
Sequence	E-score
GGTCGAGA	0.0496
GTATGCGA	0.209
TCAGTGAA	-0.194
CTGGCGCA	0.215
CTTCCTCC	-0.0888
TCACATAA	-0.0274
GACACCGA	0.101
ATCCTATA	-0.118
AGGCCTTA	-0.202
TTATTCAA	-0.0664
GATGGATA	-0.101
CCGCTAAA	0.26
ATCTAAGG	-0.136
GATCGACC	-0.0585
GCCACAGA	-0.0546
CTACTGGA	-0.16
AAATGGCA	-0.291
CTGCTTCC	-0.00115
GCCTTTCC	0.0823
GGGTTTGA	-0.0576
CAATTATA	-0.111
AGACGAGG	-0.11

Sample 4
Target: ABI1, truncated, D143A, DHFR fusion (Arabidopsis thaliana)
Technique: DHFR PCA, deep sequencing
Matrix: yeast
Notes: methotrexate growth selection, single substitutions
Together with: (+)-ABA 1.4 µM
Reference: wild-type fitted maximum
Direction: higher = stronger binding
Starting sequence: PYL1, truncated, DHFR fusion (Arabidopsis thaliana); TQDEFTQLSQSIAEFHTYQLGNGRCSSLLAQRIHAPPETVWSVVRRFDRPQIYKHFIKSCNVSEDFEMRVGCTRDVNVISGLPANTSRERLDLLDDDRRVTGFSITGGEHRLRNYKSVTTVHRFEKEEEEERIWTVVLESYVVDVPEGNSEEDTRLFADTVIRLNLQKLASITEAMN; partner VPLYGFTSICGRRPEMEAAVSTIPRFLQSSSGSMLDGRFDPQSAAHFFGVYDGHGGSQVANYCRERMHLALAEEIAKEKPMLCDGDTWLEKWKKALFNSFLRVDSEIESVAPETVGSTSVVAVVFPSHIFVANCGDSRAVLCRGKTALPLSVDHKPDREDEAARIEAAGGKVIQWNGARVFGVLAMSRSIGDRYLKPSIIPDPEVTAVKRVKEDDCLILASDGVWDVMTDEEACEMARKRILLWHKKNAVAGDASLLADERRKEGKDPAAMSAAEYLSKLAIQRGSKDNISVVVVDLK
Change	relative binding score
G107T	-3.54%
E89Y	-9.45%
V145G	-11.6%
G148Q	2.82%
S171D	57%
Q167A	66.5%
L82A	-0.186%
F56E	4.76%
I57W	8.86%
K168F	-14.3%
V70R	7.41%
L112W	5.86%
A84K	7.19%
H34P	10.8%
A175Y	8.89%

Sample 5
Target: RING finger protein unkempt homolog, zinc fingers 1-6, GST-SBP tag (UNK, Homo sapiens, UniProt Q9C0B0, residues 30-357)
Chain of UniProt Q9C0B0 (30-357, looked up): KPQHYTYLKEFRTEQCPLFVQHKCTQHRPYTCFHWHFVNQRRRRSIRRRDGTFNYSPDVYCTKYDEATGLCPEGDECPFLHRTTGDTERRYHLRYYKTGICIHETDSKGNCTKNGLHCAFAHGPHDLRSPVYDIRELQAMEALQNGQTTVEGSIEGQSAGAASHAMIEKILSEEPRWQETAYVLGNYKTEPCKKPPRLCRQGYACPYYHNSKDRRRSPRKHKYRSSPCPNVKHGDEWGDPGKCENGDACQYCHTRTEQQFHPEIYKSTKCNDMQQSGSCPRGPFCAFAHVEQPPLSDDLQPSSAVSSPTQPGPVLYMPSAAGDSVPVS
Technique: RNA Bind-n-Seq
Form: RNA
Matrix: in vitro
Tested at: not given
Notes: RNA with constant flanks, human-mouse chimeric sites, ends assumed
Reference: input RNA pool
Direction: higher = stronger binding
Constant ends, left off below: GGGAGUUCUACAGUCCGACGAUC … CAACAGAGGAUUGAGCAUCA
Sequence	bound/input enrichment [ratio]
CUUAAUGUUAAUAUUUUUGAAUAAAUGAAGCUAAAAUUUUGCUUUCUGGUACUACAUGCAUUAAUAAAAGGUUAAGUUUUGUUUUCCACUGAAGUACUAUUUAACAUCUCAGAAAAAAAC	0.476
UUUGUUUUUAUGCUAAGCACACGUGCUGGUGGUCUGGGCAUCAAUCUUGCAACUGCUGAUGUAGUAAUUUUAUAUGACUCAGAUUGGAAUCCGCAAGUUGAUCUUCAGGCUAUGGACCGU	0.471
AAAGAGAAACUAAAGCAACUAAUAGAGAAGAGGAUUGGCAAAGAGAAAUUUCAUAGAAAACUAGGAUUUAUUAGCAAACAUGAGUUAUAUUCCAGAGCGUCUCAGAAAACCCCAGCCAAC	14.8
CUCAUGGCUGCAGAAACAGGAAGUGGAAAAACUGGUGCAUUUAGUAUUCCCGUUAUCCAGAUAGUGUAUGAAACUCUGAAAGACCAACAGGAAGGAAAAAAAGGAAAAACAACUAUUAAA	1.23
CUGAGGAUACCACUGAAGAGACCUUAAAAGAAUCAUUUGAGGGCUCUGUUCGUGCAAGAAUAGUCACUGAUCGGGAAACUGGUUCUUUCCAAAGGGUUGGUUUUGUAAGACUUCAACGUG	0.175
CUGUGACCACAAGAUCCUACCUGAGUGGCAGCUGAAGCACUUUUCUUCUCCUUGCCUGCCUAGUUUCCCACUGCCCCCCCAUCCCCCAGUGUCGGCUGAGAUGUUGCCUCUGCACGGUUC	1.24
UAAAUUAGCCAGCACCAUUUCUGUUUCUCCCUGGGCUGCGGAAAGCCAGAAGAUUUUAUCUAGCUUAAACCAGGCUGCUGGUGUUCCCUCUUUUUUUCCACGAGGGUGUUUUUGGCUGCA	0.733
CCAAUUGUGGAGCAGUACUUGAAGACAAAGAAAAAUUCUAAUAAUUUAAUCAUGAAAUACAUUAGCUGCCGCCUGCUGACACUCAUCAUUAUACUGUUAGCGUGUAUCUACCUGGGCUAU	0.679
CUUCGGAAAAAAAAAUUACCUUUUCUGCAUAUUAUAGCCCUCCCAUAGAUCCACGUUCAAGCUCAAAGAGCAAAGGCUUUGCACGGAGCUCAAACAUCUGAUGAAGAAAGAUUUCUGAGA	0.97
GUUGCCAGCUUCCGGUUCCGUUGGGCUCGGUUCUCUCCUGAGCUACGUGUCUCUACGCUCUCAAUCCGCCAUCCAACGGCAGUCAUGGAUCAGGUAAAGUUUGUGGAGCCCAGCCGGCAG	0.136
CUGUGUGUGCUGAAUAAAUGGCUUGUAAAGAAGUUUUUCCAAGCUGUAACCCAUGCUGUUAUUAUAGUUGCUGCAAAAUGUUCUUCCUGAUAUUGAUGUUUGUUUACCUGACUCUCCCUC	0.435

Sample 6
Target: CCNA1, cyclin fold, Cln2 fusion (human)
Technique: yeast growth competition, sequencing
Matrix: yeast
Notes: weak parent motif
Reference: not given
Direction: higher = stronger binding
Starting sequence: SLBP docking peptide (human); ARYKRKLLINDFG; partner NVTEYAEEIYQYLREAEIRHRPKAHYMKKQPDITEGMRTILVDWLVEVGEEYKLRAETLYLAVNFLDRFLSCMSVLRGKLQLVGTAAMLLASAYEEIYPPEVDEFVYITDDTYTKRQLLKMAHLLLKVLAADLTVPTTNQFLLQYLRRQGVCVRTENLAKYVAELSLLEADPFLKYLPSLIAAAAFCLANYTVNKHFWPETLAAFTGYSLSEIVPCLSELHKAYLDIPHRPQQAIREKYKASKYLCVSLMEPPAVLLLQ
Change	normalised enrichment score
ARYKRKLGINDFG [L8G]	0.291
ARYKRGLLINDFG [K6G]	0.501
ARYKQKLLINDFG [R5Q]	0.136
ARYSRKLLINDFG [K4S]	0.279
ARYKRKLLYNDFG [I9Y]	0.552
ARYKYKLLINDFG [R5Y]	-0.0134
QRYKRKLLINDFG [A1Q]	0.00704
ARYKRLLLINDFG [K6L]	0.216
MRYKRKLLINDFG [A1M]	0.422
ARYKRKLLINGFG [D11G]	0.359
ARYKRKLIINDFG [L8I]	0.548
ARYKRKPLINDFG [L7P]	0.114
ARYKRKDLINDFG [L7D]	0.137
ARYKRKNLINDFG [L7N]	0.466
ARYKKKLLINDFG [R5K]	0.36
ARYWRKLLINDFG [K4W]	0.679
ARYKRKLLINIFG [D11I]	0.0147

Single results of other studies
Substance	target	test	system	conditions	how to read	endpoint	value
PhoQ, residues 284 288 289 292 302 303 SIHLQL	PhoP, residues 12 14 15 18 19 LHHVQ (Escherichia coli, UniProt P23836)	Sort-seq, refers to: YFP reporter	E. coli	PhoQ-PhoP variant library, together with: 10 µM Mg2+	reference: high Mg2+ state, higher = stronger signaling	fold induction	0.12

A few entries again (sample 6):
Change	normalised enrichment score
ARYSRKLLINDFG [K4S]	0.279
ARYKRKLLYNDFG [I9Y]	0.552
ARYKYKLLINDFG [R5Y]	-0.0134
QRYKRKLLINDFG [A1Q]	0.00704
ARYKRLLLINDFG [K6L]	0.216
MRYKRKLLINDFG [A1M]	0.422
